{"data": "Measurements collected from several papers", "note": "Numbers after ± are the reported error."}
{"SMILES": "CN(Cc1cc(C2CC2)on1)C(=O)c1cccc(-c2ccc3c(c2)CCO3)c1", "target": "acetyl-CoA synthetase 1 (Aspergillus fumigatus)", "test": "enzyme activity, inhibitor, coupled pyrophosphate", "conditions": "25 µM", "scale": "higher is more activity", "quantity": "reaction rate", "value": "0.00119 a.u."}
{"SMILES": "CC(C)(O)c1ccn2c(-c3ccc(F)c(-c4ccc(F)cc4C#N)c3)cnc2c1F", "target": "GABAA receptor, α1 and β2, CFP, YFP, G251D", "test": "FRET", "test system": "HEK-293T", "conditions": "5 µM, 24 h, with: hispidulin 10 µM", "quantity": "FRET efficiency", "value": "41 ± 2.1%"}
{"SMILES": "CCN(CC)C(=O)CC(NC(=O)CCc1ccccc1)C(=O)NC(Cc1ccc(F)cc1)C(=O)NC(Cc1ccc(F)cc1F)C(=O)C1(C)CO1 (stereo not shown)", "target": "proteasome β5, Trypanosoma brucei", "test": "activity-based probe labelling, inhibitor", "test system": "parasite lysate", "conditions": "1 µM, 1 h preincubation, with: Me4BodipyFL-Ahx3Leu3VS", "quantity": "probe labelling", "value": "inhibited"}
{"SMILES": "NCCCn1cc(COc2cc(C(=O)Nc3cc(OCCN)c4ccccc4n3)nc(C(=O)Nc3cc(OCCN)c4ccccc4n3)c2)nn1", "target": "Bcl2 G-quadruplex DNA", "test": "FRET melting", "conditions": "1 µM, pH 7.4, with: 60 mM potassium", "quantity": "ΔTm", "value": "2.5 ± 0.4 K"}
{"SMILES": "COc1ccc(C2CC(=O)c3c(O)c(Br)c(O)c(Br)c3O2)cc1O (stereo not shown)", "target": "bovine serum albumin", "test": "methylglyoxal-mediated glycation, fluorescence", "conditions": "concentration not given", "quantity": "inhibition", "value": "63.3 ± 2.8%"}
{"SMILES": "Cc1c(C)c2cccnc2c2ncccc12.O=[N+]([O-])[O-].O=c1c(C=NN=C([S-])Nc2ccccc2)coc2ccccc12.[Cu+2]", "target": "supercoiled pUC19 DNA", "test": "oxidative DNA cleavage", "conditions": "concentration not given, sodium azide 50 µM, with: ascorbic acid", "quantity": "nicked circular DNA", "value": "100%"}
{"SMILES": "Nc1ncc(-c2cc(-c3cnn(CC(F)(F)F)c3)ncc2F)nc1C(=O)NC1CNCC(F)C1 (stereo not shown)", "target": "PIK3C2G", "test": "KINOMEscan", "conditions": "1 µM", "scale": "relative to: DMSO control", "quantity": "remaining binding", "value": "89%"}
{"SMILES": "c1ccc(-c2n[nH]cc2-c2ccnc3ccccc23)nc1", "target": "BCK1 (Candida albicans)", "test": "kinase binding, MIB/MS competition", "test system": "Candida albicans lysate", "conditions": "1 µM", "scale": "relative to: DMSO", "quantity": "log2 fold change", "value": 0.09}
{"SMILES": "C=CC(=O)N1[C@@H](c2ccc3c(c2)OCO3)c2[nH]c3ccccc3c2C[C@H]1C(=O)N1CCN(C)CC1", "target": "human cyclin E1 wild type-3xFLAG:CDK2", "test": "co-IP with TMT proteomics, refers to: RPSA", "conditions": "concentration not given, P08865", "scale": "relative to: wild type DMSO", "quantity": "relative co-enrichment", "value": "97%"}
{"SMILES": "C=CC(=O)Nc1cccc(Cn2ncc3cnc(Nc4cnn(CCOC)c4)nc32)c1", "target": "CIT human", "test": "binding, KINOMEscan", "conditions": "100 nM", "scale": "lower = stronger binding", "quantity": "percent of control", "value": "80%"}
{"SMILES": "Cc1cn(CC(=O)N(CC(=O)N[C@H]2COC[C@@H]2N(CC(=O)NCCOCCOCC(N)=O)C(=O)Cn2cnc3c(N)ncnc32)[C@H]2COC[C@@H]2NC(=O)CN(C(=O)Cn2cnc3c(N)ncnc32)[C@H]2COC[C@@H]2NC(=O)CN(C(=O)Cn2cnc3c(=O)[nH]c(N)nc32)[C@H]2COC[C@@H]2NC(=O)CN(C(=O)Cn2cc(C)c(=O)[nH]c2=O)[C@H]2COC[C@@H]2NC(=O)CN(C(=O)Cn2cnc3c(=O)[nH]c(N)nc32)[C@H]2COC[C@@H]2NC(=O)CN(C(=O)Cn2cc(C)c(=O)[nH]c2=O)[C@H]2COC[C@@H]2NC(=O)CN(C(=O)Cn2cnc3c(N)ncnc32)[C@H]2COC[C@@H]2NC(=O)CN(C(=O)Cn2cnc3c(=O)[nH]c(N)nc32)[C@H]2COC[C@@H]2N)c(=O)[nH]c1=O", "target": "mismatched DNA TG", "test": "duplex formation, UV melting", "scale": "relative to: complementary DNA", "quantity": "ΔTm", "value": "-21.4 °C"}
{"SMILES": "COc1c(Br)c(O)c(Br)c2c1C(=O)CC(c1ccccc1)O2 (stereo not shown)", "target": "bovine serum albumin", "test": "methylglyoxal-mediated glycation, fluorescence", "conditions": "concentration not given", "quantity": "inhibition", "value": "45.6 ± 4.28%"}
{"SMILES": "N=C(c1ccc([N+](=O)[O-])o1)N1CCC(NC(=O)c2cc(-c3ccc(F)cc3F)on2)(c2nc3ccccc3[nH]2)CC1", "target": "STING pathway", "test": "inhibitor, RT-qPCR", "test system": "mouse iBMDM", "conditions": "concentration not given, 2 h, with: diABZI 500 nM", "quantity": "IL6 mRNA level", "value": "inhibited"}
{"note": "Excerpt of the above:"}
{"SMILES": "Nc1ncc(-c2cc(-c3cnn(CC(F)(F)F)c3)ncc2F)nc1C(=O)NC1CNCC(F)C1 (stereo not shown)", "target": "PIK3C2G", "test": "KINOMEscan", "conditions": "1 µM", "scale": "relative to: DMSO control", "quantity": "remaining binding", "value": "89%"}
